# Measurements from different studies.
# Parts stem from different laboratories: compare values within a part only.

# Series 1
# Target: RING finger protein unkempt homolog, zinc fingers 1-6, GST-SBP tag (UNK, Homo sapiens, UniProt Q9C0B0, residues 30-357)
# UniProt Q9C0B0, sequence (30-357, looked up): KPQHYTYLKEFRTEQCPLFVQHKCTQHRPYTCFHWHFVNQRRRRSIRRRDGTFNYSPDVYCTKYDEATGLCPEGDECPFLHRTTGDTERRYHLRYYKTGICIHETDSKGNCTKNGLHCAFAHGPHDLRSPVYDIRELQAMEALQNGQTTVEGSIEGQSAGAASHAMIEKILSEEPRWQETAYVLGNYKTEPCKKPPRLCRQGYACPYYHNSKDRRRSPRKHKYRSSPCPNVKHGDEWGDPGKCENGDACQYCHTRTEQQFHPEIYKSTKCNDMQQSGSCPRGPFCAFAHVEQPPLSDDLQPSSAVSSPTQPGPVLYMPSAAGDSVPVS
# Method: RNA Bind-n-Seq
# Form: RNA
# Matrix: in vitro
# Concentration: not given
# Notes: RNA with constant flanks, ends assumed
# Reference: input RNA pool
# Direction: higher = stronger binding
# Shared flanks, not repeated: GGGAGUUCUACAGUCCGACGAUC … CAACAGAGGAUUGAGCAUCA
Strand,bound/input enrichment
GAGGAUCCGUACCCACACAAGUUCCACGUGGACAUCUCACUCACUCAGUUCAUCCAAGAAUACCGUCACCUGCAGCCUGGGGACCACCUGACUGAUGUCACCCUCAAAGUGGCAGGCCGC,0.214 ratio
UGGUCCUCGGUUGCUCGUCAUGCAAGUGCUAUUUCCCGGAGUAUUUCUGCCUCAACAGUUCUCCGGCCUGUUGCUUCUAGAAGAACCUGUUUGACAGACAUACUGUGGUCUGCCUCUGCC,0.22 ratio
UAUGGCUUAAAAUGCUUUUGGAGUUUAUUUCUCAAAAUUAAAAUCUGGUCACAUGAGCUUCCGUUUGUUUUCUGGUUUAAAAAAUAAAAAGGUUUCUCUUAACAGUAUUUCCAGUGACAA,0.253 ratio
UGCCUGCCUUCAAUCCUGGCCAAGUUGGAGUAGACUGGUAUGAGAAAACUAUGAUCCGUUCACAUUUACUGGUGCAUCCUUGAUCCUCUCACAGAUAGAGGUCUUAAAGGUUGGAUCAUG,0.194 ratio
UACACAGUAUUGUUCUUGUAAAACUGUGACAUUCCACAGAGCUACUGCCACAAUCCUUUCUCCGGGUGUCAGGCUCUGAAUCUCUCCAAAUGUGCUGUCUUUGGUUCCUCAUGGCUAUUC,0.208 ratio
CCAGUACCUCUCAAACGAUCUUUAGAUAGUUAACUUCUACUACUAUUUAACGUUAUCUUUCCGCACUCAUAGAACAAACCAAGAUAUGGAAGAAGACAUAUUCAAAAGGUGGGCUUGUCU,0.969 ratio
AAAAUGUUUAUCGGUGGACUGAGCUGGCAGACCUCACCAGAUAGCCUUAGAGACUAUUUCCGCAAAUUUGGAGAAAUUAGAGAAUGUAUGGUCAUGAGAGAUCCCACUACGAAACGCUCC,2.02 ratio
GAGAAGACAGGGCACAGUGGUACGCUGGAUCCCAAGGUGACUGGUUGUUUAAUCGUGUGCACCGAACGAGCCACUCGCUUGGUGAAGUCACAACAGAGUGCAGGCAAAGAGUAUGUGGGG,0.204 ratio
GCUAUCUAUGUCCAAGCAUUGAUAUUUCGCCUAGAAGGAAAUAUCCAAGAAUCCCCCGAACUCUUCCAGACAUGUGCAGUUCUUAGUCCUCAGAGUGCUGAUAACCUCAAGCAGGUGGCC,0.468 ratio
UUUUAUAUCAAACAAAAGAAAGCUAGACCUUCCGUCAAAGAAACUCUUCAGAAGUCUGGUGUCCGGAAAGAGUUUCCAAUUACUGAGGCAGUAGGAUCUGAUAAGACAAAUAGGCAUCCC,1.12 ratio
GAAGCUUUACAUGAGUUACUCAGUUUUGCUUGAAGCAGUUUAAUACCAUCUAUCAUAAAAGCCGCUACAACGUGUCGUGAGUGGAUUCAUUACAAAUGAGAGAUAUACCAUUUCUCUCUG,0.189 ratio

# Series 2
# Target: Interferon regulatory factor 5, full length, phosphomimetic (IRF5, Homo sapiens, UniProt Q13568-2, residues 1-514, K96S/S451D/S453D/S456D/S462D)
# Method: protein-binding microarray
# Form: double-stranded DNA, one strand shown
# Matrix: in vitro
# Concentration: 250 nM
# Notes: 60-bp whole probe
# With: salmon DNA 0.4 mg/ml
# Reference: random background probes
# Direction: higher = stronger binding
# Shared flanks, not repeated: GCCTAGCAC … GTCTTGATTCGCTTGACGCTGCTG
Strand,log fluorescence
TCATTTTTCTACTTCTGACTGTGCTAG,1.5 z-score
TAAGGACTGCTACTGCTTTAGTGCTAG,-0.425 z-score
TTGGTTCTGATCCTTCCCCTCGTGCTA,-0.0415 z-score
GACGGACTGGACACTGTGGACGTGCTA,-0.526 z-score
TTAGGTATCGGATTCGGTTAGTGCTAG,3.01 z-score
GACGATTTCGGGAATCGAGACGTGCTA,2.42 z-score
TCACCTCTAACTTCCCAACTGTGCTAG,0.00782 z-score
GACGATCTCAGTCTGGAGACGTGCTAG,-0.208 z-score
GACGGTCTCGGTCTCGGGACGTGCTAG,0.0104 z-score
GACTGTCTCGGACTGGGGACGTGCTAG,-0.44 z-score
GACGGACTGCTGTTCCTGACGTGCTAG,-0.715 z-score
TTAGGCTTCGGTATCGGTTAGTGCTAG,6.04 z-score
GACGGTCTCCTTTTCCTGTCGTGCTAG,0.561 z-score
GACTGTTTCGGTTTCGGGACGTGCTAG,10.5 z-score
TTAGGTATCGGGTTTAGGTTAGTGCTA,3.36 z-score
TCACTCTTGCTTTTTAGACTGTGCTAG,0.608 z-score
TCAAATCTCACTCTGTCACTGTGCTAG,0.718 z-score
CAAGTGGAGCCCAGGCCAGAGTGCTAG,-0.889 z-score
TAAGAACTGGGGACTGGATTAGTGCTA,-0.358 z-score
GACGGACTGGGCTTCGGGACGTGCTAG,-0.563 z-score
GACGGTTTCCGGTATCGGGACGTGCTA,2.37 z-score
TTAGCTATCGGACTGGGTTAGTGCTAG,1.86 z-score
CAATATTAGAGTCTCAACCCGTGCTAG,-0.0779 z-score
TTAGGACTGGGGACGGGGTTAGTGCTA,0.359 z-score

# Series 3
# Target: Max-binding protein MNT, bHLH-zipper, MAX partner unstated (MNT, Homo sapiens, UniProt Q99583, residues 220-300)
# Method: protein-binding microarray
# Form: double-stranded DNA, one strand shown
# Matrix: in vitro
# Concentration: not given
# Notes: k-mer, scored over probes, only values ≥0.25
# Direction: higher = stronger binding
# Target sequence (chain): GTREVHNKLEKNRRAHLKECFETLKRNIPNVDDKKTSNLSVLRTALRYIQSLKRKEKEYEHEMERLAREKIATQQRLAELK
Strand,E-score
CCACCTGA,0.299
GAACATGC,0.342
AGATGGGG,0.282
ATGCGGAG,0.27
TGCCCGCA,0.278
CACGCGTA,0.427
GCACAGCC,0.268
CATGGTAA,0.273
CCCTCCCC,0.319
CATGGTCC,0.31
ACGTGATA,0.445
CATGGCCC,0.31
CGCCACAC,0.285
CATGTGAC,0.476
GAAAGCAC,0.281
GTGCCGCA,0.267
CCATATGG,0.354
AGTGCACA,0.273
CAAGCATG,0.4
GCCCCCGC,0.267
CGTGTGGC,0.346
GGTGGCGA,0.294

# Series 4
# Target: RNA binding protein fox-1 homolog 2, RRM domain, GST-SBP tag (RBFOX2, Homo sapiens, UniProt O43251-10, residues 100-194)
# Method: RNA Bind-n-Seq
# Form: RNA
# Matrix: in vitro
# Concentration: 365 nM
# Notes: natural RNA segment, single round, ends assumed
# Reference: no-protein control
# Direction: higher = stronger binding
# Shared flanks, not repeated: GGGAGUUCUACAGUCCGACGAUC … UGGAAUUCUCGGGUGCCAA
# Target sequence (chain): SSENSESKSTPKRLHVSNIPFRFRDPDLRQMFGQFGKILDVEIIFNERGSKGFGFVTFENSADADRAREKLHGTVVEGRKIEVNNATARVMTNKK
Strand,RBNS enrichment (R)
AGACCGUGGAUUUGGCUUAGCACUGUUAAGCAUACAGGUAUCUACAGGCCUGGUGUGGUUUGUUCUGGUCUCAUUCAGGUUUAGGGGUGCUCCUGCACAGGCUUCUGCAC,0.393
UGGGAACCACAGAGGAAGGAUGAGGUGGGAUGUGGAGGUCAGAGCAUCUCACGAGAGUCCCUCAGGCUCUGCAACACUAGAUUCGAAUAUGAGCCUAGGGUUUCCCCAAC,0.488
CUUUGGAAAUUGAGGACUUUUUUUUUUCCUUUGAAAGUAUGGCAUCUGAAGAACACAGUAUCAUGACUCGGGUGGAAAGGGAGGCAGAAGCCAUUUUUCUUUUAGAUGAA,0.43
ACCAAAAGGAAAUCAACUGAGUGGGUGUUUGGAAGAGGAAGGAGCAACUCUCGGGCAGCCUGCCCAAGGGAGGGAGCAAGUUGCAAUUUAGAAGAUGCCAUACGUCGUGU,0.612
AGACCCCUCUGAGGGGUAUCUGUUCUGCAGCCCCUAGUGAAAUCAUGUGAUGUGAGACAGAAACCUAAACAUGGUACUUGAUUCUAAACCUGUGCCAGUCUAUAGCCUCU,0.442
UAUCUCAGGAUAUGGAAGUUUCUGGGUUUAUUUACCCCUCAGUGCCCAGAGUUAAAGUUUCAGAAGAGACUUGUGCACAUAAGGGCUUCAUCUCAAGUGUAUUGCAGUAA,0.292
UUCUAAACAAUAAAAGGGCACCUGGAAUUUUCAGAACAUUAAAAAACUGAAACCACUUAGAAGAAAAGAAGAAACCUAAAUGUCUGUGGAAGUGAUCAGUAUUAAGUGGG,0.464
AGCCCCCCACCUUGUCACCCUCAGGGCUUCCCCUUCUGUCCUCAUUCUUAGAGACUGCUUCUCCCAAACAUAACGCGUUAGCCAUGAAGGAGUCGGAGCCCUGGGUCCGA,0.51
UUGGCCCCACCCAAGCCCAAACUUACCUUCUCUGGGGGAAAAAAAAGGAAAGAUGGUAAUAGUGAGAGAUUCGGGGGGCACCCCCUCCCCAUUGGUUUCUGGCCCUUUCA,0.384
AGAAUGAGGGAAAUUGCUAUUUUAUUUGUAUUCAUGAACUUGGCUGUAAUCAGUUAUGCCGUAUAGGAUGUCAGACAAUACCACUGGUUAAAAUAAAGCCUAUUUUUCAA,1.85
UCAGGUUGGGCGGGGCCGGUUCUAAACGCUCCAAGGGUCAACUCUGUUUCUUGCCUAGCAAACGAAGCUUUGCCCGCACAGCCUUGACUCGCGGCCCCAGGGCGGAGCCC,0.249
UGUCGCCAUUUGCAUUUUGAGUCAUCUUGUGUAAAUGUCACCAUGAAAGUGUUACUCAGAAUUGUCAUAGUUUUUUUCCCCCCAUCUUUGUGCUAAAACAUGGAAAAUUG,0.339

# Series 5
# Target: Histone acetyltransferase KAT6A, winged helix 2, GST fusion (KAT6A, Homo sapiens, UniProt Q92794, residues 85-181)
# Method: protein binding microarray
# Form: double-stranded DNA, one strand shown
# Matrix: in vitro
# Concentration: not given
# Notes: 8-mer, flanks averaged, mean of 2 arrays, mostly near background
# Reference: not given
# Direction: higher = stronger binding
# Construct (chain): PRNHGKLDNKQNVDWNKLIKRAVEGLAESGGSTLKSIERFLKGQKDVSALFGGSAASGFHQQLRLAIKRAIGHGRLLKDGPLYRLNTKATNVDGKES
Strand,E-score
GGGTTGGA,0.136
CCCCCCGG,0.114
ATATTTTA,-0.0132
CTTAATCA,0.0591
TACAGTCA,-0.152
AGTCTAGG,-0.19
CACGTGGG,-0.159
CGGCTGCA,0.155
TATTTTAA,-0.015
ACCTAATA,-0.109
ATGTATGG,-0.0565
GCTTTAAC,-0.0324
CTCAAGTC,-0.182
GCCGGCAC,0.221
AAATCAAG,-0.116
CACTTACG,-0.0501
CACCTTAA,-0.177
ACATTGAA,0.0073
AAGACGAC,-0.0622
ACATTCCT,-0.165
CGCGAACG,0.0621
GGATTTAC,0.093
GAGGCCCC,0.00905

# Repeated from above (series 2):
Strand,log fluorescence
GACTGTCTCGGACTGGGGACGTGCTAG,-0.44 z-score
GACGGACTGCTGTTCCTGACGTGCTAG,-0.715 z-score
TTAGGCTTCGGTATCGGTTAGTGCTAG,6.04 z-score
GACGGTCTCCTTTTCCTGTCGTGCTAG,0.561 z-score
GACTGTTTCGGTTTCGGGACGTGCTAG,10.5 z-score
